Measurements from different studies.
Parts stem from different laboratories: compare values within a part only. Changes are numbered by the printed parent chain.

Study 1 — method: RNA Bind-n-Seq; molecule type: RNA; sample: in vitro; concentration: not given; relative to: input RNA pool; direction: higher = stronger binding
Target: RING finger protein unkempt homolog, zinc fingers 1-6, GST-SBP tag (UNK, Homo sapiens, UniProt Q9C0B0, residues 30-357)
Notes: RNA with constant flanks, human and mouse sites, ends assumed
Constant ends, left off below: GGGAGUUCUACAGUCCGACGAUC … CAACAGAGGAUUGAGCAUCA
Construct (chain): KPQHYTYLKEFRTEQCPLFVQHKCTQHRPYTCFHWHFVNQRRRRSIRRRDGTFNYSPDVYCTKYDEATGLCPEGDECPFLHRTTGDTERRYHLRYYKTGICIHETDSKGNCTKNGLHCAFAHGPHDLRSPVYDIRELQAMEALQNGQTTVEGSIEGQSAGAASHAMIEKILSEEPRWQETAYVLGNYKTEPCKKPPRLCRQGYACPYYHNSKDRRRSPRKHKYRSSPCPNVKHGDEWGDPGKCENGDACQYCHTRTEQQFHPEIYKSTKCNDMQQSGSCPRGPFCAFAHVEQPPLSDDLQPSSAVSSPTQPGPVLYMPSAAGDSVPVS
Oligonucleotide | bound/input enrichment
GCUGUUAUCUAUGCGGGUGUACGGGGUUAUCUUGACAAACUGGAGCCCAGCAAGAUCACAAAGUUUGAGAAUGCUUUCUUGUCUCACGUUAUCAGCCAGCACCAGUCCCUCUUGGGCAAU | 0.133 ratio
GAAAUUGUUGAAUUUUUGUUGCAACUUGGAGUGCCAGUGAAUGAUAAAGACGAUGCAGGUUGGUCUCCUCUUCAUAUUGCGGCUUCUGCUGGCCGGGAUGAGAUUGUAAAAGCCCUUCUG | 0.235 ratio
AGUCCACUGAUGCAGUGCUCAUUUUACAAUAGAUCAUCUCCUGUACACAUCAUAGCCACUAGCAAAAGUUUACAUUCCUAUGCACGCCCUCCACCAGUGUCCUCUUCUUCGAAGAGUGAA | 2.16 ratio
UAACAGUCAAUCAGCAACUGCAGGACUCACGAAAGGUACAAGUCUGUGGUAUCAUCUUGCUAGCAUCUAUGUUGUGGUGUGCCAAGCCUGAUGGGCAGUAAGCUUCCUGUGAUGUUUGUC | 0.0693 ratio
CUGGGAACCUCCCAGAGGUCCAGCCCAUCUCGGAGCAUCCCGGAGGAAAUCUGCAGAGGGUUAGGAGUGGGUGACAAGAGCCUGAUCUCUUCCUGUUUUGUACAUAGAUUUAUUUUUCAG | 1.5 ratio
CAAUGCGUAUGAGUCUUUGACAUCAUGAUGUACAUCCGGCAAAGAAAAGAGACAAAACCCAUAGAAGUUUCUGAGGAUUUUCCAUCACCAAAAGAAGAUGUGAAGUUGGAAAAGAAAUUG | 0.347 ratio
CAGCUCUUUGGGGAUGAUGAAACUGCUUUCGGUUACAAGGGCCUGAAGAUCUUGCUGUACUAUAUUGCUGGUAGCCUGUCAACACUGUUCCGUGUUGAAUAUUCAUCUAAAGUUGAUGAG | 0.221 ratio

Study 2 — method: protein binding microarray; molecule type: double-stranded DNA, one strand shown; sample: in vitro; concentration: not given; relative to: not given; direction: higher = stronger binding
Target: Histone acetyltransferase KAT6A, winged helix 2, GST fusion (KAT6A, Homo sapiens, UniProt Q92794, residues 85-181)
Notes: 8-mer, flanks averaged, mean of 2 arrays, mostly near background
Target sequence (chain): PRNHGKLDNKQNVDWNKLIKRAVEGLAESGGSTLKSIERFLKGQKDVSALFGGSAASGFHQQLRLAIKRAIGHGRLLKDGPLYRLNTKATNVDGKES
Oligonucleotide | E-score
ATTTCACC | 0.0203
CTTTAAAC | -0.0677
CCTGAGCG | 0.0908
CGGTGACC | -0.0242
ACTCTAGA | -0.147
CATGGAGA | -0.00409
CGTGTTTC | -0.0517
ATTGTCAA | -0.0783
ACACTTAA | -0.0948
AAAGTCGT | -0.168
CCCCCCTA | -0.167
AGTACAGG | 0.00863
CAAAAAGA | 0.102

Study 3 — target: CCNA2, cyclin fold, Cln2 fusion (human); method: yeast growth competition, sequencing; sample: yeast; notes: strong parent motif; relative to: not given; direction: higher = stronger binding
Starting sequence: BRCA2 docking peptide (human); PSIKRNLLNEFDR; partner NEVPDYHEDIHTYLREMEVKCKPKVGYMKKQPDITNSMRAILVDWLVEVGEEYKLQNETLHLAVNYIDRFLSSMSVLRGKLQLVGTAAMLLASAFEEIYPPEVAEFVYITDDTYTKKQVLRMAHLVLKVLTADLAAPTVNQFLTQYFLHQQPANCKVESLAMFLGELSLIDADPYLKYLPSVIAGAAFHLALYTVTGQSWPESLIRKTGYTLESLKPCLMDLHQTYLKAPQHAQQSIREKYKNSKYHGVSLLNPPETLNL
Variant | normalised enrichment score
PSIKRNGLNEFDR [L7G] | 0.334
PSIKRTLLNEFDR [N6T] | 2.33
PSIKRNLLNTFDR [E10T] | -0.0277
PSEKRNLLNEFDR [I3E] | 1.28
PSIKRNLLNEIDR [F11I] | 2.07
PSIKRNLENEFDR [L8E] | 3.57
PSIKRNLLNECDR [F11C] | -0.269
PSIKRNLLNEFDL [R13L] | 4.19
PSIKRNLLNEFDI [R13I] | 5.8
SSIKRNLLNEFDR [P1S] | 4.69
PSIKRNLLNEFDV [R13V] | 4.37
PSIARNLLNEFDR [K4A] | 4.69
PSIKRNLLFEFDR [N9F] | 4.03
PSIKRNLLNEFDN [R13N] | 5.55
PSIKRNLLNEHDR [F11H] | 0.078
PSIKRNTLNEFDR [L7T] | 0.416

Study 4 — method: universal PBM; molecule type: double-stranded DNA, one strand shown; sample: in vitro; concentration: not given; direction: higher = stronger binding
Target: Sal-like protein 4, full length isoform B (SALL4, Homo sapiens, UniProt Q9UJQ4-2, residues 1-616)
Notes: 8-mer, flanks averaged, mean of replicates
Target sequence (chain): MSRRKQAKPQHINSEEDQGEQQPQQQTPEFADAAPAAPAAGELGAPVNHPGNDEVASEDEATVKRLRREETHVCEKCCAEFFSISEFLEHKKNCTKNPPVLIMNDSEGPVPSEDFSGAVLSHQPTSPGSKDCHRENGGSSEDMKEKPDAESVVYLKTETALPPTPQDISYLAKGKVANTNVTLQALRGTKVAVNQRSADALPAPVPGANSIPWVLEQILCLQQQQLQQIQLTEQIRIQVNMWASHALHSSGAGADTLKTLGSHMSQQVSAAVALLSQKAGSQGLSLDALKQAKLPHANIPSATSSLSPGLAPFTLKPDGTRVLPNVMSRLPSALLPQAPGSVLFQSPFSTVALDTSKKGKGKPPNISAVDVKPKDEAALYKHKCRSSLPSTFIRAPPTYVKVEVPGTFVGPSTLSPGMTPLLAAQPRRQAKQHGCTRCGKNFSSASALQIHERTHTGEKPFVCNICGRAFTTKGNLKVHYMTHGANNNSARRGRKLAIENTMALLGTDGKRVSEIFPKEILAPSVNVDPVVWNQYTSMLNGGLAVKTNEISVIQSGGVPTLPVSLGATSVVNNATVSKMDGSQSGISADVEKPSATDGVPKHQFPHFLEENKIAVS
Oligonucleotide | E-score
AGCGAACT | -0.066
GGCGCGAA | -0.137
AAAAGCAG | -0.0522
AATTGGGT | 0.206
CTAGCTAC | -0.197
GGTTGTTA | 0.102
AATGATGT | 0.238
ACTCCAAT | -0.012
ATTCAGTA | 0.264
AATTTGAG | 0.192
ATGTCCCA | -0.159
GCATTAGC | -0.0543
CGGCAGCC | -0.433
AGAGGTAC | -0.176
AGACCGGA | -0.277
GACAACGA | 0.0355
CGGATTGC | -0.112
TCGCCAGA | -0.11

Some of these lines once more (study 3):
Variant | normalised enrichment score
PSIKRNLLNEHDR [F11H] | 0.078
SSIKRNLLNEFDR [P1S] | 4.69
PSIKRNLLNEFDN [R13N] | 5.55
PSIKRNLLNEIDR [F11I] | 2.07
PSEKRNLLNEFDR [I3E] | 1.28
PSIKRNGLNEFDR [L7G] | 0.334
